Measured values pooled from the literature.
Each numbered part is a random draw from the data of one study; scales do not carry over between parts. Positions count from the first letter of the parent shown.

Sample 1
Target: CCNE2, cyclin fold, Cln2 fusion (human)
Technique: yeast growth competition, sequencing
Matrix: yeast
Notes: strong parent motif
Baseline: not given
Direction: higher = stronger binding
Endpoint: normalised enrichment score
Starting sequence: INSM1 docking peptide (human); PKAIRKLHFEDEV; partner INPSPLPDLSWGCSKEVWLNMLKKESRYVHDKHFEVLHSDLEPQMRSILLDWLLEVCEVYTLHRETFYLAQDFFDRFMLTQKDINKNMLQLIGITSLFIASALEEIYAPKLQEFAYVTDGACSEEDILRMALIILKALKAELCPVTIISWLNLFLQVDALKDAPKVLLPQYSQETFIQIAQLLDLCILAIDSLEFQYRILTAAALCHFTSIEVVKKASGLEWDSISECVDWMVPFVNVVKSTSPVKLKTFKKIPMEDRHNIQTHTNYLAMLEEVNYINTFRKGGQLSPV
PKDIRKLHFEDEV [A3D]: -0.25
PKAIAKLHFEDEV [R5A]: -0.126
PKAIRKLHAEDEV [F9A]: -0.355
PKAIRKMHFEDEV [L7M]: 0.49
PKAIRKLHFEMEV [D11M]: 1.44
PKAIRKLHWEDEV [F9W]: 0.885
PKAIRKLHFGDEV [E10G]: 2.85
PKAIRKLHFENEV [D11N]: 1.91
PKAIRVLHFEDEV [K6V]: 1.02
PKAIRKLHFIDEV [E10I]: 0.84
PEAIRKLHFEDEV [K2E]: 0.63
PKAIRKLHIEDEV [F9I]: -0.289
PKAIRKLHFESEV [D11S]: 1.75
PKAIRKRHFEDEV [L7R]: 0.336
PKAIRKWHFEDEV [L7W]: 0.15
PKAARKLHFEDEV [I4A]: 0.771
PKAIRKLCFEDEV [H8C]: 2.1
PKAIRELHFEDEV [K6E]: 0.268

Sample 2
Target: Interferon regulatory factor 5, full length, phosphomimetic (IRF5, Homo sapiens, UniProt Q13568-2, residues 1-514, S451D/S453D/S456D/S462D)
Technique: protein-binding microarray
Molecule type: double-stranded DNA, one strand shown
Matrix: in vitro
Tested at: 940 nM top
Notes: 60-bp whole probe
With: salmon DNA 0.4 mg/ml
Baseline: random background probes
Direction: higher = stronger binding
Endpoint: fitted relative affinity
Shared flanks, not repeated: GCCTAGCAC … GTCTTGATTCGCTTGACGCTGCTG
GACAGTTTCGGTATCGGGACGTGCTAG: 14.7 z-score
TTTTTTTTTTTTTTTTTGGAGTGCTAG: 1.88 z-score
CATTATTTCAATGCAAGGTGGTGCTAG: 0.241 z-score
GTAAGCAAAAATGATTGGTTGTGCTAG: -0.171 z-score
GACGTTCTCGGACTGGGGACGTGCTAG: 0.497 z-score
TGAGGTATCCTTCTCCTTTAGTGCTAG: 0.456 z-score
TCATACATGGGTATAGAACTGTGCTAG: -0.222 z-score
TTAGGTATCGGACTGGGTAAGTGCTAG: 3.78 z-score
TTAGGTTTTGACACTGGGTTAGTGCTA: 0.286 z-score
CTCTCCATGTGTTTAAAAAGGTGCTAG: 0.516 z-score
GAGGATATCAGTCTCGAGACGTGCTAG: 0.908 z-score
TCAAATGCCCTTTTGGTACTGTGCTAG: -0.617 z-score
TTAGGTATCCTTATCCTTGAGTGCTAG: 0.394 z-score
TTAGGTCTGGGTATCGGTTAGTGCTAG: 3.6 z-score
ATTTGCTTCAGGTTTACCAGAGTGCTA: -0.345 z-score
TTAGTACTGGGGTATCGGTTAGTGCTA: 2.82 z-score
CTGTTTTTGCTTTCCTTCTTGTGCTAG: 2.28 z-score
AGGCCTCTGGGATCCCAGTCGGTGCTA: -0.62 z-score

Sample 3
Target: Ras GTPase-activating protein-binding protein 1, full length (G3BP1, Homo sapiens, UniProt Q13283)
Sequence of UniProt Q13283 (whole entry, looked up): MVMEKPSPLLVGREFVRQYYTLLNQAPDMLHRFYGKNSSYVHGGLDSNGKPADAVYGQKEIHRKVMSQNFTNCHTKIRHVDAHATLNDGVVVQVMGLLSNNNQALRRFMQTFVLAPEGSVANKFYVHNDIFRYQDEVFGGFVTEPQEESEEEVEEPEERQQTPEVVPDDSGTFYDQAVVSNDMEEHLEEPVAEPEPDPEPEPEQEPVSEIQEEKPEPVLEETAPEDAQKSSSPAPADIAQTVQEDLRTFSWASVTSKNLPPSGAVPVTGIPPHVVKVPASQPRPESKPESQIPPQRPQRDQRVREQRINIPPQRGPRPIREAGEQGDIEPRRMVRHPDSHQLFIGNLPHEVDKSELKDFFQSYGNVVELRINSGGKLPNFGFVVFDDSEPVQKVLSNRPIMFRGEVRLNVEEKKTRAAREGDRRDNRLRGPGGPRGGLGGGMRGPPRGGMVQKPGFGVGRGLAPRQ
Technique: RNA Bind-n-Seq
Molecule type: RNA
Matrix: in vitro
Tested at: 200 nM
Notes: whole 134-nt RNA, ends assumed
With: 150 mM LiCl
Baseline: input library
Direction: higher = stronger binding
Endpoint: log2 enrichment
All molecules: 7-deaza-guanosine replaces G
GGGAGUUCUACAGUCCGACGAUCCAAGUCCUGUGCUACACAUCGUAUGUACCGAAUCGGAAAGGUUUUUUUGGUUUGGAAAGUAUUAUGUUACGCCGUUCGGAUCUGCACUUCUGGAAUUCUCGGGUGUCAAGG: -2.59
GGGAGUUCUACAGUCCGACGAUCCCUGUGCUACACAUCGUAUGUACCGAAUCGGGGAAAAAAAGGAAAAAAAGGGAAAAAAAGGAAAGUAUUAUGUUACGCCGUUCGGAUCUGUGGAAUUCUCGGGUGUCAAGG: 0.296
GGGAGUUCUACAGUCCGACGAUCUGGCCCUGGUGGCAUGCGGGGAGGAAGAGGUGGCCUCAUGGAUCGUGGUGGUCCCGAUGGAAUGUUCAGAGGUGGCCGUGGUGGAGACAGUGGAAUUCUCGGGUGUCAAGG: 0.0368
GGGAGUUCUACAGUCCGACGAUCUGUGCUACACAUCGUAUGUACCGAAUCGGGAAAAAAAGGGAAAAAAAGGGGAAAAAAAGGGGAAAGUAUUAUGUUACGCCGUUCGGAUCUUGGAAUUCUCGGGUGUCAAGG: 0.277
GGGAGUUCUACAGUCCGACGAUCAAGUCCUGUGCUACACAUCGUAUGUACCGAAUCGGGAAAAGGGAAAAGGGGAAAAGGAAAGUAUUAUGUUACGCCGUUCGGAUCUGCACUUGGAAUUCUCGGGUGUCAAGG: 0.378
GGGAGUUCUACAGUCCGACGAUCCCUCAAGUCCUGUGCUACACAUCGUAUGUACCGAAUCGGGGUGGUGGGUGGGGAAAGUAUUAUGUUACGCCGUUCGGAUCUGCACUUCCAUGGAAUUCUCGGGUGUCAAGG: -0.311
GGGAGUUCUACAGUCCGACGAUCUCCCGGGCGCUAGCCCACCUCCCACCCGCCUCUUGGCUCCUCUCCUCUAGGCCGUCGCUUUCGGGUUCUCUCAUCGCUUCGUCGUUCGCCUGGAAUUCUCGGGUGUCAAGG: 0.629
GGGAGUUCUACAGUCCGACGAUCAAGUCCUGUGCUACACAUCGUAUGUACCGAAUCGGGGAGGGGUUUUUGGGGUGGGGAAAGUAUUAUGUUACGCCGUUCGGAUCUGCACUUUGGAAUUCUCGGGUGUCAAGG: 0.502

Sample 4
Target: ABI1, truncated, D143A, DHFR fusion (Arabidopsis thaliana)
Technique: DHFR PCA, deep sequencing
Matrix: yeast
Notes: methotrexate growth selection, single substitutions
With: (+)-ABA 1.4 µM
Baseline: wild-type fitted maximum
Direction: higher = stronger binding
Endpoint: relative binding score
Starting sequence: PYL1, truncated, DHFR fusion (Arabidopsis thaliana); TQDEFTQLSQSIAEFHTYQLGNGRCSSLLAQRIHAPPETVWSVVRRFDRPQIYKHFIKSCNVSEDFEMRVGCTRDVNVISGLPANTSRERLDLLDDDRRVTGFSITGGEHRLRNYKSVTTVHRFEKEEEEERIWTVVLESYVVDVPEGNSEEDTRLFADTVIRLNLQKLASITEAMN; partner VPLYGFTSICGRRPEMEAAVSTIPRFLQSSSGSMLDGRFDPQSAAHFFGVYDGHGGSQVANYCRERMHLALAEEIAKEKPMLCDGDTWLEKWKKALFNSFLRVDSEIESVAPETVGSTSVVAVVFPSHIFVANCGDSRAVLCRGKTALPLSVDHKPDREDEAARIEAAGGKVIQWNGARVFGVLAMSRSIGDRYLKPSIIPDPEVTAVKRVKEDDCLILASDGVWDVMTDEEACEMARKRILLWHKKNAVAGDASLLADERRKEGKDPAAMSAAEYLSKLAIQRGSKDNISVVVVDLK
I57K: -3.35%
S80P: 1.79%
E151K: 48.1%
S117V: 5.97%
K126N: 75.3%
D96F: -2.9%
V143M: 3.91%

Mixed results
PhoQ, residues 284 288 289 292 302 303 SLANKL
fold induction (PhoP, residues 12 14 15 18 19 SMASL (Escherichia coli, UniProt P23836); Sort-seq, item: YFP reporter; E. coli; PhoQ-PhoP variant library, with: 10 µM Mg2+; baseline: high Mg2+ state, higher = stronger signaling): 2.24

Some of these lines once more (sample 2):
CTCTCCATGTGTTTAAAAAGGTGCTAG: 0.516 z-score
GAGGATATCAGTCTCGAGACGTGCTAG: 0.908 z-score
TCAAATGCCCTTTTGGTACTGTGCTAG: -0.617 z-score
TTAGGTATCCTTATCCTTGAGTGCTAG: 0.394 z-score
TTAGGTCTGGGTATCGGTTAGTGCTAG: 3.6 z-score
ATTTGCTTCAGGTTTACCAGAGTGCTA: -0.345 z-score
